Published values pooled from the literature.
Protocols differ between the studies behind these lines.
Organism: Enterococcus faecalis

SMILES	test	test system	setting	MIC
COc1cc(/C=N/N2C(=O)c3ccccc3NC2c2ccc(O)c(OC)c2)ccc1O (centres unmarked)	broth microdilution	VRE 368, vancomycin-resistant, brain-heart infusion	24 h	> 256 µg/mL
CNC(CC(C)C)C(=O)NC1C(=O)NC(CC(N)=O)C(=O)NC2C(=O)NC3C(=O)NC(C(=O)NC(C(=O)O)c4cc(O)cc(O)c4-c4cc3ccc4O)C(O)c3ccc(c(Cl)c3)Oc3cc2cc(c3OC2OC(CO)C(O)C(O)C2OC2CC(C)(NCc3ccc(-c4ccc(Cl)cc4)cc3)C(O)C(C)O2)Oc2ccc(cc2Cl)C1O (centres unmarked)	broth microdilution	BM 4166 VanA	–	5 µg/mL
COc1ccc(CCNc2cc(-c3ccccc3)nc3ncnn23)cc1	microbial growth, broth dilution	–	–	> 64 µM
CN1C(=O)[C@@H]2NC(=O)[C@@H]3NC(=O)[C@@H](c4ccc(O)cc4)NC(=O)[C@H](NC(=O)C(NCc4cc(F)cc(F)c4F)c4ccc(O)cc4)Cc4c[nH]c5cc(ccc45)-c4cc3cc(c4O)Oc3ccc(cc3)C[C@H]1C(=O)N[C@@H](C(=O)O)c1ccc(O)c(c1)Oc1ccc2cc1 (some centres unmarked)	–	brain heart infusion medium	–	8 µg/mL
CC(C)[C@H](NC(=O)[C@H](CCCCN)NC(=O)[C@H](CCCNC(=N)N)NC(=O)CNC(=O)[C@H](C)NC(=O)[C@H](CC(N)=O)NC(=O)[C@H](CCCNC(=N)N)NC(=O)[C@@H](NC(=O)[C@H](CCCCN)NC(=O)[C@H](CC(=O)O)NC(=O)[C@@H](NC(=O)[C@@H](NC(=O)[C@H](CCCNC(=N)N)NC(=O)[C@H](CCCNC(=N)N)NC(=O)[C@H](Cc1c[nH]c2ccccc12)NC(=O)[C@H](Cc1c[nH]c2ccccc12)NC(=O)CN)[C@@H](C)O)C(C)C)C(C)C)C(=O)O	–	clinical strain	18 h, 37 °C	> 256 µg/mL
CN1C(=O)[C@@H]2NC(=O)[C@@H]3NC(=O)[C@@H](c4ccc(O)cc4)NC(=O)[C@H](NC(=O)C(NCc4ccsc4)c4ccc(O)cc4)Cc4c[nH]c5cc(ccc45)-c4cc3cc(c4O)Oc3ccc(cc3)C[C@H]1C(=O)N[C@@H](C(=O)O)c1ccc(O)c(c1)Oc1ccc2cc1 (some centres unmarked)	–	brain heart infusion medium	–	4 µg/mL
CN[C@@H]1[C@H](O)[C@H](NC)[C@H]2O[C@]3(O)[C@H](O[C@@H]2[C@H]1O)O[C@H](C)C[C@]3(O)CNCc1ccc(F)cc1	–	ATCC 33186	–	> 200 µg/mL
COc1ccc2nc(C)cc(OCC(=O)Nc3ccccc3OC)c2c1	microbial growth, broth dilution	–	–	64 µM
CN1C(=O)[C@@H]2NC(=O)[C@@H]3NC(=O)[C@@H](c4ccc(O)cc4)NC(=O)[C@H](NC(=O)C(N)c4ccc(O)cc4)Cc4c[nH]c5cc(ccc45)-c4cc3cc(c4O)Oc3ccc(cc3)C[C@H]1C(=O)N[C@@H](C(=O)NCCC[N+](C)(C)C)c1ccc(O)c(c1)Oc1ccc2cc1 (some centres unmarked)	–	brain heart infusion medium	–	16 µg/mL
O=C1c2ccccc2NC(c2ccc(Cl)c([N+](=O)[O-])c2)N1/N=C/c1ccc(Cl)c([N+](=O)[O-])c1 (centres unmarked)	broth microdilution	VRE 368, vancomycin-resistant, brain-heart infusion	24 h	> 256 µg/mL
CC[C@H](C)[C@H](NC(=O)[C@@H](Cc1ccccc1)NC)C(=O)N[C@@H](CO)C(=O)N[C@H](CCC(N)=O)C(=O)N[C@@H](C(=O)N[C@H](C(=O)N[C@@H](CO)C(=O)N[C@H]1C(=O)N[C@@H](C)C(=O)N[C@@H](C2CCCCC2)C(=O)N[C@@H]([C@@H](C)CC)C(=O)O[C@H]1C)[C@@H](C)CC)[C@@H](C)CC	broth microdilution	ATCC 51299, vancomycin-resistant, brain heart infusion broth	16 h, 37 °C	1 µg/mL

Some of these lines once more:
SMILES	test	test system	setting	MIC
CN1C(=O)[C@@H]2NC(=O)[C@@H]3NC(=O)[C@@H](c4ccc(O)cc4)NC(=O)[C@H](NC(=O)C(N)c4ccc(O)cc4)Cc4c[nH]c5cc(ccc45)-c4cc3cc(c4O)Oc3ccc(cc3)C[C@H]1C(=O)N[C@@H](C(=O)NCCC[N+](C)(C)C)c1ccc(O)c(c1)Oc1ccc2cc1 (some centres unmarked)	–	brain heart infusion medium	–	16 µg/mL
